# Measurements from different studies.
# Protocols differ between the studies behind these lines. “And” joins repeats or separate records; there may be more than shown. Numbers after ± are the reported error.
# cyp121: Mycocyclosin synthase (cyp121, Mycobacterium tuberculosis, UniProt P9WPP7)
# Sequence of UniProt P9WPP7 (whole entry, looked up): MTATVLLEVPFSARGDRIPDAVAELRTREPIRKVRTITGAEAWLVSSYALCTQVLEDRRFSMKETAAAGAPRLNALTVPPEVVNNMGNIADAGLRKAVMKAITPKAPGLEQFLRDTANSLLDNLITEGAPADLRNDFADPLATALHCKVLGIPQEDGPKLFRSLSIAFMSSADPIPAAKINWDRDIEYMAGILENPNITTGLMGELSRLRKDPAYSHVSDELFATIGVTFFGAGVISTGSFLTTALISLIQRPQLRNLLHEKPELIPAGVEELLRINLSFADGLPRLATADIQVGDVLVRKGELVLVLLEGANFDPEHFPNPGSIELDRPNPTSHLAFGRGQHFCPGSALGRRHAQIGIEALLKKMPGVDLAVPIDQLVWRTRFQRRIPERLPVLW
# Secreted effector protein N-terminal domain: Secreted effector protein, N-terminal domain (Yersinia pestis, UniProt O68720)
# pfo: pfo (Clostridium perfringens, UniProt P0C2E9)
# Sequence of UniProt P0C2E9 (whole entry, looked up): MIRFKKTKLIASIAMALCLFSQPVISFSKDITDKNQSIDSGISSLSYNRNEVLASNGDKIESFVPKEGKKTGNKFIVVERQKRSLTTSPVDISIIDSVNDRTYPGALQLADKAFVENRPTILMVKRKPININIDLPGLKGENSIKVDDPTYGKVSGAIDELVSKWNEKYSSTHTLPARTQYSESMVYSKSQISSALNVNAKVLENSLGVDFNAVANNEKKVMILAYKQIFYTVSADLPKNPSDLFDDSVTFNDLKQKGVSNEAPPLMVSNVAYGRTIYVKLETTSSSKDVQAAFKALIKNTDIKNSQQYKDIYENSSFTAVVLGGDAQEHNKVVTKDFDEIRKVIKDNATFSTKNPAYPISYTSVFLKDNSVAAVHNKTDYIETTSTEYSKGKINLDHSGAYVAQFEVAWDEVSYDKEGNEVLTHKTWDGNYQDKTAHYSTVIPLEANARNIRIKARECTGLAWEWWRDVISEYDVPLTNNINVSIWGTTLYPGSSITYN
# Sequence of UniProt Q05323 (whole entry, looked up): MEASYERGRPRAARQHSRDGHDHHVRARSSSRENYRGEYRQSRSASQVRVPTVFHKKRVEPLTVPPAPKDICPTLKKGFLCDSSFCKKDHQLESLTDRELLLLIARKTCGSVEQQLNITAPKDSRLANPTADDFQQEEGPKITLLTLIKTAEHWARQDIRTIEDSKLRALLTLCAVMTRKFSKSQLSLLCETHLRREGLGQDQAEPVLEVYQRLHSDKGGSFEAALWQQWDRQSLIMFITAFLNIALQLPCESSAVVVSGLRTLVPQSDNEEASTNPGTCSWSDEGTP
SMILES,target,observed,technique,organism,Kd
O=C(NCCOC(=O)[C@@H]1CCCCN1S(=O)(=O)Cc1ccccc1)c1cccnc1,"Peptidyl-prolyl cis-trans isomerase (Burkholderia pseudomallei, UniProt Q63J95)",,,,10.6 ± 0.2 µM
C(=C\c1ccc(-c2ccccc2)cc1)/Cn1ccnc1,cyp121,binding,,,4.3 ± 0.8 µM
CC(=O)N[C@@H](CCCCN)C(=O)N[C@@H](Cc1ccc(OP(=O)(O)O)cc1)C(=O)N[C@H](C(=O)N[C@@H](CC(=O)O)C(N)=O)C1CCCC1,Secreted effector protein N-terminal domain,,biochemical,,128 µM
COc1ccc2cc(-c3ccc(Cn4ccnc4)cc3)ccc2c1,cyp121,binding,,,0.6 ± 0.2 µM
Cc1ccc(NC(=S)NNc2c([N+](=O)[O-])cc(C(F)(F)F)cc2[N+](=O)[O-])cc1Cl,"Transcriptional activator VP30 (VP30, Zaire ebolavirus, UniProt Q05323)",,,Ebola virus,65.6 µM
CC[C@H](C)[C@H](NC(C)=O)C(=O)N[C@@H](Cc1ccc(OP(=O)(O)O)cc1)C(=O)N[C@H](C(=O)N[C@@H](CC(=O)O)C(=O)N1CCC[C@H]1C(N)=O)C1CCCC1,Secreted effector protein N-terminal domain,,biochemical,,0.52 µM
O=C(CCOCC(COCCC(=O)NC(Cc1c(-c2cc(C(=O)O)cc(C(=O)O)c2)[nH]c2c(-c3cc(C(=O)O)cc(C(=O)O)c3)cccc12)C(=O)O)(COCCC(=O)NC(Cc1c(-c2cc(C(=O)O)cc(C(=O)O)c2)[nH]c2c(-c3cc(C(=O)O)cc(C(=O)O)c3)cccc12)C(=O)O)COCCC(=O)NC(Cc1c(-c2cc(C(=O)O)cc(C(=O)O)c2)[nH]c2c(-c3cc(C(=O)O)cc(C(=O)O)c3)cccc12)C(=O)O)NC(Cc1c(-c2cc(C(=O)O)cc(C(=O)O)c2)[nH]c2c(-c3cc(C(=O)O)cc(C(=O)O)c3)cccc12)C(=O)O (stereo not drawn),SBA.1,,,,~5 µM
FC(F)(F)c1ccc(-c2ccc(Cn3ccnc3)cc2)cc1,cyp121,binding,,,5.6 µM and ≤ 6 µM
CC(=O)NC1C(OC2C(O)C(CO)OC(OC3C(O)C(CO)OC(OC4C(O)C(O)OC(CO)C4O)C3NC(C)=O)C2OC2OC(C)C(O)C(O)C2O)OC(CO)C(O)C1O (stereo not drawn),pfo,binding,,,150 µM
C1=CC2=C(c3cc[n+](Cc4ccccc4)cc3)c3ccc4[n]3[Zn][n]3c(ccc3=C(c3cc[n+](Cc5ccccc5)cc3)C3=NC(=C4c4cc[n+](Cc5ccccc5)cc4)C=C3)=C(c3cc[n+](Cc4ccccc4)cc3)C1=N2,"Major prion protein (PRNP, Homo sapiens, UniProt P04156)",binding,,,3.1 ± 0.1 µM
"O=C(OC1Cc2c(O)cc(O)cc2OC1c1cc(O)c(O)c(O)c1)c1cc(O)c(O)c(O)c1 (single isomer, unassigned; (-))","Nucleoprotein (Severe acute respiratory syndrome coronavirus 2, UniProt P0DTC9)",binding,biolayer interferometry,,3.88 ± 0.29 µM
CC(=O)NC1C(OC2C(O)C(O)OC(CO)C2O)OC(CO)C(O)C1OC1OC(CO)C(O)C(OC2OC(CO)C(O)C(O)C2O)C1OC1OC(C)C(O)C(O)C1O (stereo not drawn),pfo,binding,,,31.6 µM and 32 µM

# A few entries again:
SMILES,target,observed,technique,organism,Kd
CC(=O)NC1C(OC2C(O)C(CO)OC(OC3C(O)C(CO)OC(OC4C(O)C(O)OC(CO)C4O)C3NC(C)=O)C2OC2OC(C)C(O)C(O)C2O)OC(CO)C(O)C1O (stereo not drawn),pfo,binding,,,150 µM
C1=CC2=C(c3cc[n+](Cc4ccccc4)cc3)c3ccc4[n]3[Zn][n]3c(ccc3=C(c3cc[n+](Cc5ccccc5)cc3)C3=NC(=C4c4cc[n+](Cc5ccccc5)cc4)C=C3)=C(c3cc[n+](Cc4ccccc4)cc3)C1=N2,"Major prion protein (PRNP, Homo sapiens, UniProt P04156)",binding,,,3.1 ± 0.1 µM
